Experimental data gathered from unrelated publications.
Protocols differ between the studies behind these lines.

| Structure (SMILES) | test | test system | setting | how to read | quantity | value |
| --- | --- | --- | --- | --- | --- | --- |
| C=C(NC(=O)c1csc(-c2nc3c(cc2O)-c2nc(cs2)C(=O)NC(C(C)O)C(=O)NC(=C(C)OC)c2nc(cs2)C(=O)NC2c4nc(cs4)C(=O)NC(COC(=O)c4c5c6c(cccc6n4O)COC(=O)C(OC4CC(C)(O)C(N(C)C)C(C)O4)C2OC5)c2nc-3cs2)n1)C(N)=O (stereo not shown) |  | Sprague-Dawley rat, female, plasma | intravenous infusion, 6 mg/kg, multiple doses, day 7 |  | MRT(0-last) | 1.64 h |
| CC[C@H](C)[C@@H]1NC(=O)[C@H](Cc2ccc(O)cc2)NC(=O)CCCSC[C@@H](C(=O)N(CC(=O)N[C@@H](CC(C)C)C(=O)NCC(N)=O)Cc2ccc(F)cc2)NC(=O)[C@H](CC(N)=O)NC(=O)[C@H](CCC(N)=O)NC1=O |  | healthy women | intranasal |  | terminal half-life | ~0.5 h |
| CCCCC/C=C\CCCO[Si](CCCCCCN(C)C)(OCCC/C=C\CCCCC)OCCC/C=C\CCCCC |  |  | pH 5.5, formulated |  | zeta potential | 3.07 mV |
| C/C(N)=N/C(=N\S(=O)(=O)c1ccc(C(F)(F)F)cc1)N1C[C@H](c2ccccc2)C(c2ccc(Cl)cc2)=N1 |  | female cynomolgus monkey, plasma | intravenous, 2 mg/kg |  | clearance | 1.9 mL/min/kg |
| CN(C)S(=O)(=O)c1ccc(S(=O)(=O)N2CCC(n3c(=O)[nH]c4ccccc43)CC2)cc1 | HPLC | corn oil | 24 h, 20 °C |  | solubility | < 2 µg/mL |
| C=CC(=O)N1CCCC(n2c(=O)c3ncccc3n(Cc3ccc(Oc4ccccc4)cc3)c2=O)C1 (stereo not shown) |  | male BALB/c mouse, plasma | oral, 200 mg/kg, 2 h |  | concentration | 8590 ng/mL |
| CC[C@H](C)[C@H](NC(=O)[C@H](CC(N)=O)NC(=O)[C@@H](N)CCSC)C(=O)N[C@@H](CCSC)C(=O)N[C@@H](CC(=O)O)C(=O)N[C@@H](Cc1ccccc1)C(=O)N[C@@H](CC(N)=O)C(=O)N[C@H](C(=O)N[C@@H](CCCCN)C(=O)N[C@@H](CCCCN)C(=O)N[C@@H](CC(C)C)C(=O)N[C@@H](C)C(=O)N[C@@H](C)C(=O)N[C@@H](CC(=O)O)C(=O)N[C@@H](C)C(=O)NCC(=O)N[C@H](C(=O)N[C@@H](Cc1c[nH]c2ccccc12)C(=O)N[C@@H](CC(C)C)C(=O)N[C@@H](CO)C(=O)N[C@@H](CCCNC(=N)N)C(=O)N[C@@H](C)C(=O)N[C@H](C(=O)N[C@@H](CCC(N)=O)C(=O)N[C@@H](Cc1ccccc1)C(=O)N[C@H](C(=O)N[C@@H](CCC(=O)O)C(=O)N[C@@H](CCC(=O)O)C(=O)N[C@@H](CCCCN)C(=O)N[C@@H](CC(C)C)C(=O)NCC(=O)N[C@@H](CCC(N)=O)C(=O)N[C@@H](C)C(N)=O)[C@@H](C)O)C(C)C)[C@@H](C)O)C(C)C | circular dichroism | 25% DOPS/75% DOPC liposomes | 1 mM lipid |  | helical content | 35% |
| CN1CCC[C@]1(C)/C=C/S(=O)(=O)NC(=O)Nc1c2c(cc3c1CCC3)CCC2 | item: nasopharyngitis, not related | human | oral, 50 mg twice daily, 14 days, multiple ascending dose |  | subjects with adverse event | 16.7% |
| CC[C@H](C)[C@H](NC(=O)[C@H](Cc1ccc(O)cc1)NC(=O)[C@@H](NC(=O)[C@H](CCCNC(=N)N)NC(=O)[C@@H](N)CC(=O)O)C(C)C)C(=O)N[C@@H](Cc1c[nH]cn1)C(=O)N1CCC[C@H]1C(=O)O | LC-MS/MS | Sprague-Dawley rats, both sexes, plasma | subcutaneous, 10 mg/kg/day, day 27 |  | AUC | 101 ng·h/mL |
| Cc1cc(-c2ccc(C(=O)[C@@H]3CCCC[C@H]3C(=O)Nc3cnn4c3C(=O)NCC4)cc2)[nH]n1 |  | human, faeces | oral, 200 mg, 72-96 h | reference: dose | recovery of radioactivity per interval | 11.3% |
| COc1cccc(OC)c1-c1cc(C(=O)NC2(C(=O)O)C3CC4CC(C3)CC2C4)nn1-c1ccc(C(=O)N(C)CCCN(C)CCCN(C)C(=O)[C@H](CCCCNC(=O)[C@H](CC(C)C)NC(=O)C2OC2C(=O)O)NC(=O)CN2CCN(CC(=O)[O-])CCN(CC(=O)[O-])CCN(CC(=O)[O-])CC2)cc1C(C)C.[177Lu+3] (mixture of isomers) |  | mouse, HT-29 xenograft, spleen | 168 h post injection |  | tissue uptake | 0.57 %ID/g |
| O=C(NNCc1ccccc1)C1(C(F)(F)F)CCC1 |  | PBS | pH 7.4, 25 °C, 2% DMSO |  | solubility | 375 µM |
| CN1CC(COc2cccc3c(NCc4ccco4)nc(Cl)nc23)OC1=O (stereo not shown) |  | C57BL/6 mouse, heart | oral, 30 mg/kg, 0.5 h | reference: heart over plasma | tissue/plasma ratio | 0.462 |

Some of these lines once more:
| Structure (SMILES) | test | test system | setting | how to read | quantity | value |
| --- | --- | --- | --- | --- | --- | --- |
| C=C(NC(=O)c1csc(-c2nc3c(cc2O)-c2nc(cs2)C(=O)NC(C(C)O)C(=O)NC(=C(C)OC)c2nc(cs2)C(=O)NC2c4nc(cs4)C(=O)NC(COC(=O)c4c5c6c(cccc6n4O)COC(=O)C(OC4CC(C)(O)C(N(C)C)C(C)O4)C2OC5)c2nc-3cs2)n1)C(N)=O (stereo not shown) |  | Sprague-Dawley rat, female, plasma | intravenous infusion, 6 mg/kg, multiple doses, day 7 |  | MRT(0-last) | 1.64 h |
| CC[C@H](C)[C@@H]1NC(=O)[C@H](Cc2ccc(O)cc2)NC(=O)CCCSC[C@@H](C(=O)N(CC(=O)N[C@@H](CC(C)C)C(=O)NCC(N)=O)Cc2ccc(F)cc2)NC(=O)[C@H](CC(N)=O)NC(=O)[C@H](CCC(N)=O)NC1=O |  | healthy women | intranasal |  | terminal half-life | ~0.5 h |
